Assay results from different studies.
± gives the spread as reported.
Sequence of UniProt P42684 (whole entry, looked up): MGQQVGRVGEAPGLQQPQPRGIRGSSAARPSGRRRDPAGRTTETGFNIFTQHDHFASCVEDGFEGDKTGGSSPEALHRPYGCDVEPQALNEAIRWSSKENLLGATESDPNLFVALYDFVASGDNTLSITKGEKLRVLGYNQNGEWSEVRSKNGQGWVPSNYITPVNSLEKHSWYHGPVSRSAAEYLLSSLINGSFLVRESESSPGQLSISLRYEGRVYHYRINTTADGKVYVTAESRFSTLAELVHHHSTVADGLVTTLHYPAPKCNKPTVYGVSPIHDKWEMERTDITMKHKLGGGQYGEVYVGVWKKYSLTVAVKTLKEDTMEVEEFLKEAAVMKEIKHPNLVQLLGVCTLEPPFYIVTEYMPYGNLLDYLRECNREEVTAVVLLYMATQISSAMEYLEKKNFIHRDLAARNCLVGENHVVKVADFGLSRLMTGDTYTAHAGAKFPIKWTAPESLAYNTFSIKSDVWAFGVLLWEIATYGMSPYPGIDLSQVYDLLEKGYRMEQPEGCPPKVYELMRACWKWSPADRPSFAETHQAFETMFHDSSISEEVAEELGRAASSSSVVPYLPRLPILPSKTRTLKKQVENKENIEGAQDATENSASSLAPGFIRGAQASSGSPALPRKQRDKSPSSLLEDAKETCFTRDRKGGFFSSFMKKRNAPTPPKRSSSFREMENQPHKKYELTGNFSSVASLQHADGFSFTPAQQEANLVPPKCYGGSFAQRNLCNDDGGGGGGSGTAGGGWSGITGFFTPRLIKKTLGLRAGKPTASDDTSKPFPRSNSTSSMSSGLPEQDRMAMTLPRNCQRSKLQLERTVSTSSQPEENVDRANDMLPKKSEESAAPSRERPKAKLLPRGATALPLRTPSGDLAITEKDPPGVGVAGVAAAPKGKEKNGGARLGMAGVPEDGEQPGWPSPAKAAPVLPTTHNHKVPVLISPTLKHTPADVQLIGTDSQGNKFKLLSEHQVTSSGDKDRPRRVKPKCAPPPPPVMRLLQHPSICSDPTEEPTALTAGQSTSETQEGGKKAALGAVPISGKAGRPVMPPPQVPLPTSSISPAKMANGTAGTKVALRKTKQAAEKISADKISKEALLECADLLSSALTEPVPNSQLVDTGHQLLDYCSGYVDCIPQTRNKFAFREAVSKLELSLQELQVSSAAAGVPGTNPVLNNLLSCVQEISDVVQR
Sequence of UniProt P60893 (whole entry, looked up): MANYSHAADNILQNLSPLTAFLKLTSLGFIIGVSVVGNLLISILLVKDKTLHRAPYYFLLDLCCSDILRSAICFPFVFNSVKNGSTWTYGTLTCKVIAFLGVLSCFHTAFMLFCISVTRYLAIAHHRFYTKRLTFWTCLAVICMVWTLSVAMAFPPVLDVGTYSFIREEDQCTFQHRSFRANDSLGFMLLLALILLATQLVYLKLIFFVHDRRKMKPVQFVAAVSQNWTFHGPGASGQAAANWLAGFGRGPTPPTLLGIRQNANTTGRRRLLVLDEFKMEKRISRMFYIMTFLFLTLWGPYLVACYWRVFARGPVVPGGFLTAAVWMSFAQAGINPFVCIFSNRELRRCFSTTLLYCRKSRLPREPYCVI
Sequence of UniProt O95983 (whole entry, looked up): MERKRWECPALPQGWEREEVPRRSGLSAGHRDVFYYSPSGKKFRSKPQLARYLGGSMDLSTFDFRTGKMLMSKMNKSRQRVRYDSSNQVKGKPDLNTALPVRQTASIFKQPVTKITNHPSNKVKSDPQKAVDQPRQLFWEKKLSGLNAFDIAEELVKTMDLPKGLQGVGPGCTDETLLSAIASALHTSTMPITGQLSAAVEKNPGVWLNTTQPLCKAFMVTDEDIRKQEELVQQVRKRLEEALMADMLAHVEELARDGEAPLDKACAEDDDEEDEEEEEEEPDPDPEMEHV
Sequence of UniProt Q8NET8 (whole entry, unmodified, looked up): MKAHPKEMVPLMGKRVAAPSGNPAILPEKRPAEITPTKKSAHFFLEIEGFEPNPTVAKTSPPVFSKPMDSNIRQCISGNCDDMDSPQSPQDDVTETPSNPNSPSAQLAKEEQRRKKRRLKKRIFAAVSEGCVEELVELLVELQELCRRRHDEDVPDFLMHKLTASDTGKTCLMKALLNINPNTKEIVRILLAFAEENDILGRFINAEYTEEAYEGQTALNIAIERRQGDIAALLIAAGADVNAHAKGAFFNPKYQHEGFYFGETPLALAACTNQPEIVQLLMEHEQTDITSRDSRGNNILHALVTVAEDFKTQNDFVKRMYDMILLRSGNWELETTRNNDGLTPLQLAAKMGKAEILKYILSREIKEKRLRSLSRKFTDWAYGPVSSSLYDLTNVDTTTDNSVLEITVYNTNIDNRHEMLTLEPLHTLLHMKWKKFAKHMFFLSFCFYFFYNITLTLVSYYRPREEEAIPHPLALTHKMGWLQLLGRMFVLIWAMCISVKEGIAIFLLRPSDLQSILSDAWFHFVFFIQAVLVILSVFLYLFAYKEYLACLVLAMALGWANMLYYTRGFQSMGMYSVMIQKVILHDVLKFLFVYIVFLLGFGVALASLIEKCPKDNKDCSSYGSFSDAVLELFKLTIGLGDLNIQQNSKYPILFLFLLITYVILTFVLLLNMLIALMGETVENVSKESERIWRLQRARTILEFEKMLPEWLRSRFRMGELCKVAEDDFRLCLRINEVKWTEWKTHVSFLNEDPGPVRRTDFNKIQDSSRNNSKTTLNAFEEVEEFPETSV
Sequence of UniProt P28335 (whole entry, looked up): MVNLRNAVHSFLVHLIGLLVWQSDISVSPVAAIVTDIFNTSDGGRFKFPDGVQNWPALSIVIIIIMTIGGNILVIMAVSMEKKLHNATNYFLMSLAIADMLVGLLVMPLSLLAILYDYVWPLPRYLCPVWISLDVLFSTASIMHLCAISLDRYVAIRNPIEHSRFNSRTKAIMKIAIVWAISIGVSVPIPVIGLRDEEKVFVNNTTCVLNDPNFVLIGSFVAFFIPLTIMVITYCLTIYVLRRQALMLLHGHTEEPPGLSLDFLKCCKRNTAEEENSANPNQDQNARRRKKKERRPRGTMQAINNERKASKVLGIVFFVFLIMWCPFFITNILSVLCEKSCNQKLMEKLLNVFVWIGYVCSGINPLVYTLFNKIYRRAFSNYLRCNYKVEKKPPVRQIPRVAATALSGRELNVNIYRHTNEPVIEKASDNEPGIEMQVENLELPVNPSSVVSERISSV
Sequence of UniProt Q5T601 (whole entry, looked up): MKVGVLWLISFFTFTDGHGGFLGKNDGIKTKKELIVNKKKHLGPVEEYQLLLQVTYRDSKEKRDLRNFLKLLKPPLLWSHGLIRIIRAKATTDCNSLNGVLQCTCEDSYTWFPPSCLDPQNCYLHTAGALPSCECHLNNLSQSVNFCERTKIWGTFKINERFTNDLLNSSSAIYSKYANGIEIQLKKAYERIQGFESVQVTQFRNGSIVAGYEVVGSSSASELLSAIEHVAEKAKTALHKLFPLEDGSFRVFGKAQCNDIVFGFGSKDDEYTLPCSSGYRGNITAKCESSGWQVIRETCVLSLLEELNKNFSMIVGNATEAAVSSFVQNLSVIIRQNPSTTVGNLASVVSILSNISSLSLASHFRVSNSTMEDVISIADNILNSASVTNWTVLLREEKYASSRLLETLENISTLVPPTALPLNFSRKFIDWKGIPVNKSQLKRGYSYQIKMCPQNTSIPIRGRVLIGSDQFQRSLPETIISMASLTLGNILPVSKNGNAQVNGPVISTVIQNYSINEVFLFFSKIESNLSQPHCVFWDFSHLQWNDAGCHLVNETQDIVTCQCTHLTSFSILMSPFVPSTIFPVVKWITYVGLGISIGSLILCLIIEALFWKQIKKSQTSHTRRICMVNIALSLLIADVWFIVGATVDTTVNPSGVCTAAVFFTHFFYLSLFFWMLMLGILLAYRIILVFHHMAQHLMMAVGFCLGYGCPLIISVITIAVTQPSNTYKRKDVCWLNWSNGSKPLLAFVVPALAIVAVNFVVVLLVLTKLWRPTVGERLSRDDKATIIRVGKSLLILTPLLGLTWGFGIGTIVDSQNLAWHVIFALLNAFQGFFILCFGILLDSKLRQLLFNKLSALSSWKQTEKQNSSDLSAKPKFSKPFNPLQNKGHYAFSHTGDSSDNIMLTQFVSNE
Sequence of UniProt P06239 (whole entry, looked up): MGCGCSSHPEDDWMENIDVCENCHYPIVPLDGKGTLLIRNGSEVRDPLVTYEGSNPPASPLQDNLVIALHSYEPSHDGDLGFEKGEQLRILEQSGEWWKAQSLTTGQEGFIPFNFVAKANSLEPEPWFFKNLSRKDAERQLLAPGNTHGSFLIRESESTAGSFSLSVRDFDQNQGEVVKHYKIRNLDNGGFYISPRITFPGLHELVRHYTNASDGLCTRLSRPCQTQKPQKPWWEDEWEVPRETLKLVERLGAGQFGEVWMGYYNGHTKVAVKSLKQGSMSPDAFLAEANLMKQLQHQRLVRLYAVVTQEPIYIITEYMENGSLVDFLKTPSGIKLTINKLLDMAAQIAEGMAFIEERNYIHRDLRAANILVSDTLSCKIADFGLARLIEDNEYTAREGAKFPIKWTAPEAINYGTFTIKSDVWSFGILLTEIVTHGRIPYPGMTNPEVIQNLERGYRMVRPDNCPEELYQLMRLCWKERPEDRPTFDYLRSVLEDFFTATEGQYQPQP
Sequence of UniProt P21917 (whole entry, looked up): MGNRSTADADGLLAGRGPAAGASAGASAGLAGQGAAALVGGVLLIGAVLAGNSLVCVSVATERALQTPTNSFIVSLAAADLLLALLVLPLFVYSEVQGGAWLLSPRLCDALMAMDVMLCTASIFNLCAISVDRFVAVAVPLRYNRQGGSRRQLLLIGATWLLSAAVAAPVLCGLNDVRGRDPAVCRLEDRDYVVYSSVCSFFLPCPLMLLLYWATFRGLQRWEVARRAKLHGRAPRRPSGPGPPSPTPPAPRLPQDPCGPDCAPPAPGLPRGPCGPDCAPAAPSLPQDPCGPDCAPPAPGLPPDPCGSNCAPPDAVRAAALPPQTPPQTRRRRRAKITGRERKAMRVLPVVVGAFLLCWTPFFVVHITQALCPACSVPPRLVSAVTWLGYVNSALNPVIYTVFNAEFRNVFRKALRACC

| Structure (SMILES) | target or system | assay | system | setting | scale | quantity | result |
| --- | --- | --- | --- | --- | --- | --- | --- |
| CC[C@H](C)[C@H](NC(=O)CNC(=O)[C@@H](N)CCCCN)C(=O)N[C@@H](CC(C)C)C(=O)N[C@@H](CCCCN)C(=O)N[C@@H](CCCNC(=N)N)C(=O)N[C@@H](CCC(=O)O)C(=O)N[C@@H](CCCCN)C(=O)N[C@@H](CCCNC(=N)N)C(=O)N[C@@H](CC(C)C)C(=O)N[C@@H](CCCNC(=N)N)C(=O)N[C@@H](CCCNC(=N)N)C(=O)N[C@@H](CCCCN)C(=O)N[C@@H](CC(N)=O)C(=O)N[C@H](C(=O)N[C@@H](Cc1c[nH]cn1)C(=O)N[C@@H](Cc1c[nH]c2ccccc12)C(=O)N1CCC[C@H]1C(=O)N[C@@H](CCC(=O)O)C(=O)N[C@@H](CCC(=O)O)C(=O)NCC(=O)N[C@@H](CCCCN)C(=O)N[C@@H](CC(C)C)C(=O)N[C@@H](CCCNC(=N)N)C(=O)N[C@@H](CCC(=O)O)C(=O)N[C@@H](Cc1ccccc1)C(=O)N[C@@H](Cc1ccccc1)C(=O)N[C@@H](Cc1ccccc1)C(=O)N[C@@H](Cc1ccccc1)C(=O)N[C@@H](CCC(=O)O)C(=O)N[C@@H](CC(C)C)C(=O)N[C@@H](CC(=O)O)C(=O)N[C@@H](CCC(=O)O)C(=O)N[C@@H](C)C(=O)N[C@@H](CCC(=O)O)C(=O)N[C@@H](CCCNC(=N)N)C(=O)N[C@H](C(=O)N[C@@H](CC(N)=O)C(=O)N[C@H](C(=O)O)C(C)C)C(C)C)C(C)C | HeLa and HEK-293T cells | phosphatase bead binding, competitive inhibitor, PIB pulldown iBAQ LC-MS/MS, measured: PPP4R2 | – | concentration not given | baseline: untreated control | log2 fold change | 0.02 |
| CN1CCN(c2cc(-c3ccncc3)c(-c3ccc4ccccc4c3)nn2)CC1 | DRD4 (Homo sapiens, UniProt P21917) | antagonist, FLIPR | – | 10 µM | – | inhibition | 8.2% |
| O=C(c1ccc(Cl)cc1)N1CCN2C(=O)N(OC(=O)N3CCOc4ccccc43)C(=O)C2C1 (stereo not drawn) | PRCP (Homo sapiens, UniProt P42785) | MS-based ABPP | SW-620 conditioned medium | 10 µM, 1 h, 37 °C | baseline: compound over DMSO, lower = more inhibition | median protein ratio | 1.16 |
| [2H]c1c([2H])c([C@]2([2H])CCCN2C(=O)C(C)(C)Oc2ccc3cn[nH]c3c2)c([2H])c([2H])c1C([2H])([2H])[2H] | ABL2 (Homo sapiens, UniProt P42684) | KINOMEscan | – | 1 µM | baseline: DMSO control | remaining binding | 71% |
| COc1ccc(N2C(=O)N(c3c(C)cccc3Cl)Cc3cnc(Nc4ccc(C5CCN(C)CC5)cc4OC)nc32)nc1 | LCK (Homo sapiens, UniProt P06239) | kinase activity | – | 0.5 µM | – | inhibition | 97% |
| CN1CC[C@]2(C)c3cc(OC(=O)Nc4ccccc4)ccc3N(C)[C@H]12 | human nicotinic α3β2 receptor | radioligand binding | – | 10 µM, together with: [3H]epibatidine | – | inhibition | 0% |
| CO[C@H]1C[C@@H]2CC[C@@H](C)[C@@](O)(O2)C(=O)C(=O)N2CCCC[C@H]2C(=O)O[C@H]([C@H](C)C[C@@H]2CC[C@@H](OC(=O)NCCOCCOCCOCCOCCOCCOCCOCCOCCC(=O)N3CCc4cc(Cn5nc(-c6ccc7oc(N)nc7c6)c6c(N)ncnc65)ccc4C3)[C@H](OC)C2)C[C@@H](O)[C@H](C)/C=C(\C)[C@@H](O)[C@@H](OC)C(=O)[C@H](C)C[C@H](C)/C=C/C=C/C=C/1C | – | phase 1 dose escalation | advanced solid tumour patients | intravenous, 12 mg weekly, any grade | – | any TEAE incidence | 100% |
| COc1cc(N)c(Cl)cc1C(=O)NC1CN2CCC1CC2 (stereo not drawn) | ADGRF1 (Homo sapiens, UniProt Q5T601) | β-arrestin recruitment, TANGO luminescence, measured: GPR110 | – | concentration not given | baseline: basal luminescence | log2 fold change | 0.244 |
| CN1CC[C@@H](c2c(O)cc(O)c3c(=O)cc(-c4ccc(C(F)(F)F)cc4Cl)oc23)[C@@H]1CO | – | measured: Fatigue | AML | oral, 100 mg, intermittent dosing | – | patients with adverse event | 33.3% |
| C[C@@H](O)[C@@H](CO)NC(=O)[C@@H](CCCNC(=N)N)NC(=O)[C@@H]1CCCN1C(=O)[C@@H]1CSSC[C@H](NC(=O)[C@H](Cc2ccccc2)NC(=O)CN2CCN(CC(=O)O)CCN(CC(=O)O)CCN(CC(=O)O)CC2)C(=O)N[C@@H](Cc2ccc(O)cc2)C(=O)N[C@@H](Cc2ccccc2)C(=O)N[C@@H](CCC(N)=O)C(=O)N[C@@H](CC(N)=O)C(=O)N1 [gallium-68 labelled] | – | – | healthy Wistar rat, liver | intravenous, 8 MBq, 60 min, individual animals | – | tissue uptake | 0.24 %ID/g |
| COc1cc(Nc2ncc(F)c(Nc3ccc4c(n3)NC(=O)C(C)(C)O4)n2)cc(OC)c1OC | TACR1 (Homo sapiens, UniProt P25103) | – | – | – | – | IC50 | > 10 µM |
| COc1cc(CCNC(C)c2ccccc2O)c(OC)cc1C#N (single isomer, unassigned; (+)) | HTR2C (Homo sapiens, UniProt P28335) | calcium flux, agonist | – | – | baseline: 5-HT | Emax | 43% |
| COc1cc2c(Oc3ccc4[nH]c(C)cc4c3F)ccnc2cc1OCC1(N)CC1 | – | – | paediatric recurrent refractory sarcoma | 12 mg | – | grade 1 or 2 mouth ulcer | 0% |
| CCCc1cc(O)c2c(c1)OC(C)(C)[C@@H]1CCC(C)=C[C@@H]21 | TRPV3 (Homo sapiens, UniProt Q8NET8, A560L) | calcium uptake, agonist | HEK293S | mutant A560L, site 1 | – | Hill coefficient | 1.95 ± 0.18 |
| CC[C@H](C)[C@H](NC(=O)[C@H](Cc1ccccc1)NC(=O)[C@H](CCC(=O)O)NC(=O)[C@H](CCCNC(=N)N)NC(=O)[C@H](C)NC(=O)[C@H](C)NC(=O)[C@H](CCC(N)=O)NC(=O)[C@H](CCC(=O)O)NC(=O)[C@H](CCC(=O)O)NC(=O)[C@H](CC(C)C)NC(=O)[C@H](Cc1ccc(O)cc1)NC(=O)[C@H](CO)NC(=O)[C@H](CO)NC(=O)[C@@H](NC(=O)[C@H](CC(=O)O)NC(=O)[C@H](CO)NC(=O)[C@@H](NC(=O)[C@H](Cc1ccccc1)NC(=O)[C@@H](NC(=O)CNC(=O)[C@H](CCC(=O)O)NC(=O)[C@H](C)NC(=O)CCc1c[nH]cn1)[C@@H](C)O)[C@@H](C)O)C(C)C)C(=O)N[C@@H](C)C(=O)N[C@@H](Cc1c[nH]c2ccccc12)C(=O)N[C@@H](CC(C)C)C(=O)N[C@H](C(=O)N[C@@H](CCCNC(=N)N)C(=O)NCC(=O)N[C@@H](CCCNC(=N)N)C(=O)N[C@@H](CCCCNC(=O)COCCOCCNC(=O)COCCOCCNC(=O)CC[C@H](NC(=O)CCCCCCCCCCCCCCCCC(=O)O)C(=O)O)C(=O)NCC(=O)NCC(=O)N[C@@H](CO)C(=O)N[C@@H](CCCCNc1c(NCCCCCN(O)C(=O)CCC(=O)NCCCCCN(O)C(=O)CCC(=O)NCCCCCN(O)C(C)=O)c(=O)c1=O)C(=O)O)C(C)C [zirconium-89 labelled] | – | – | rat, femur | intravenous, 3 nmol/kg, 4 h | – | tissue uptake | 0.17 %ID/g |
| Cc1[nH]c2ccc(O)cc2c1-c1csc(-c2c[nH]c3cc(O)ccc23)n1 | differentiated W12E | CUT&RUN-qPCR | – | concentration not given | baseline: untreated | 53BP1 binding at HPV ori | decreased |
| C[C@H]1CN(c2n[nH]c3nc(N[C@H]4CC[C@H](NS(=O)(=O)CCC(F)(F)F)CC4)ncc23)CCO1 | Methyl-CpG-binding domain protein 3 (MBD3, Homo sapiens, UniProt O95983) | Kinobeads competition, measured: MBD3 | – | 20 µM, unit not given | baseline: vehicle | remaining binding | 1.11 |
| Oc1ccc2c3c1O[C@H]1[C@@H](O)CC[C@@]4(O)[C@@H](C2)N(CC2CCC2)CC[C@]314 | Probable G-protein coupled receptor 85 (GPR85, Homo sapiens, UniProt P60893) | β-arrestin recruitment, TANGO luminescence, measured: GPR85 | – | concentration not given | baseline: basal luminescence | log2 fold change | 0.022 |
| CC[C@H](C)[C@@H]1NC(=O)[C@@H]2CCCN2C(=O)[C@H](CC(C)C)NC(=O)[C@H](CC(C)C)NC(=O)CNC(=O)[C@@H](NC(=O)[C@@H](NC(=O)[C@H](CC(=O)O)NC(=O)CNC(=O)[C@@H](NC(=O)[C@H](C)NC(=O)CNC(=O)[C@H](CCCCN)NC(=O)[C@H](CC(C)C)NC(=O)[C@H](CC(C)C)NC(=O)[C@H](CCCCN)NC(=O)CNC(=O)[C@@H](NC(=O)[C@@H](N)CC(C)C)C(C)C)C(C)C)C(C)C)CSSC[C@@H](C(=O)O)NC1=O | – | RNA-seq, measured: Lcp1 | mouse, traumatic brain injury model, frontal cortex and hippocampus | dose not given | baseline: TBI alone | log2 fold change | -2.03 |
| CC[C@H](C)[C@H](NC(=O)CNC(=O)[C@@H](N)CCCCN)C(=O)N[C@@H](CC(C)C)C(=O)N[C@@H](CCCCN)C(=O)N[C@@H](CCCNC(=N)N)C(=O)N[C@@H](CCC(=O)O)C(=O)N[C@@H](CCCCN)C(=O)N[C@@H](CCCNC(=N)N)C(=O)N[C@@H](CC(C)C)C(=O)N[C@@H](CCCNC(=N)N)C(=O)N[C@@H](CCCNC(=N)N)C(=O)N[C@@H](CCCCN)C(=O)N[C@@H](CC(N)=O)C(=O)N[C@H](C(=O)N[C@@H](Cc1c[nH]cn1)C(=O)N[C@@H](Cc1c[nH]c2ccccc12)C(=O)N1CCC[C@H]1C(=O)N[C@@H](CCC(=O)O)C(=O)N[C@@H](CCC(=O)O)C(=O)NCC(=O)N[C@@H](CCCCN)C(=O)N[C@@H](CC(C)C)C(=O)N[C@@H](CCCNC(=N)N)C(=O)N[C@@H](CCC(=O)O)C(=O)N[C@@H](Cc1ccc(O)cc1)C(=O)N[C@@H](Cc1ccccc1)C(=O)N[C@@H](Cc1ccc(O)cc1)C(=O)N[C@@H](Cc1ccccc1)C(=O)N[C@@H](CCC(=O)O)C(=O)N[C@@H](CC(C)C)C(=O)N[C@@H](CC(=O)O)C(=O)N[C@@H](CCC(=O)O)C(=O)N[C@@H](C)C(=O)N[C@@H](CCC(=O)O)C(=O)N[C@@H](CCCNC(=N)N)C(=O)N[C@H](C(=O)N[C@@H](CC(N)=O)C(=O)N[C@H](C(=O)O)C(C)C)C(C)C)C(C)C | HeLa and HEK-293T cells | phosphatase bead binding, competitive inhibitor, PIB pulldown LC-MS/MS, measured: KNL1 | – | concentration not given | baseline: untreated control | log2 fold change | -5.26 |
| CN[C@]1(c2ccccc2Cl)CCCCC1=O | P2X receptor | radioligand binding, agonist, radioligand displacement | – | 30 µM | – | inhibition | 0% |

Repeated from above:
| Structure (SMILES) | target or system | assay | system | setting | scale | quantity | result |
| --- | --- | --- | --- | --- | --- | --- | --- |
| CN1CC[C@]2(C)c3cc(OC(=O)Nc4ccccc4)ccc3N(C)[C@H]12 | human nicotinic α3β2 receptor | radioligand binding | – | 10 µM, together with: [3H]epibatidine | – | inhibition | 0% |
| CO[C@H]1C[C@@H]2CC[C@@H](C)[C@@](O)(O2)C(=O)C(=O)N2CCCC[C@H]2C(=O)O[C@H]([C@H](C)C[C@@H]2CC[C@@H](OC(=O)NCCOCCOCCOCCOCCOCCOCCOCCOCCC(=O)N3CCc4cc(Cn5nc(-c6ccc7oc(N)nc7c6)c6c(N)ncnc65)ccc4C3)[C@H](OC)C2)C[C@@H](O)[C@H](C)/C=C(\C)[C@@H](O)[C@@H](OC)C(=O)[C@H](C)C[C@H](C)/C=C/C=C/C=C/1C | – | phase 1 dose escalation | advanced solid tumour patients | intravenous, 12 mg weekly, any grade | – | any TEAE incidence | 100% |
| COc1cc(N)c(Cl)cc1C(=O)NC1CN2CCC1CC2 (stereo not drawn) | ADGRF1 (Homo sapiens, UniProt Q5T601) | β-arrestin recruitment, TANGO luminescence, measured: GPR110 | – | concentration not given | baseline: basal luminescence | log2 fold change | 0.244 |
